Results of several laboratories.
“And” joins repeats or separate records; there may be more than shown. Numbers after ± are the reported error.
MT-CYB/UQCRFS1: MT-CYB/UQCRFS1 (Homo sapiens, UniProt P00156+P47985)
Protein lin-28 homolog A: Protein lin-28 homolog A (Mus musculus, UniProt Q8K3Y3)
Dehaloperoxidase B ferric: Dehaloperoxidase B, ferric (Amphitrite ornata, UniProt Q9NAV7)
SLC6A6 Y138A: Sodium- and chloride-dependent taurine transporter (SLC6A6, Homo sapiens, UniProt P31641, Y138A)

| SMILES | target | test | test system | setting | how to read | measurement | result |
| --- | --- | --- | --- | --- | --- | --- | --- |
| CCC1(O)CCCN(C(=O)c2ccc(-c3ccc(F)c(NC(=O)CCl)c3)cc2)C1 (stereo not drawn) | DNA dC->dU-editing enzyme APOBEC-3B, C-terminal domain (Homo sapiens, UniProt Q9UH17) | covalent modifier, intact protein mass spectrometry, refers to: adduct +26104 Da | – | 125 µM, 3 h, 5-fold molar excess | – | protein adduct | 4.5% |
| N[C@H]1[C@H](O[C@H]2[C@H](O)[C@@H](N)[C@H](O[C@H]3[C@H](O)[C@@H](N)[C@H](O[C@H]4[C@H](O)[C@@H](N)C(O)O[C@@H]4CO)O[C@@H]3CO)O[C@@H]2CO)O[C@H](CO)[C@@H](O)[C@@H]1O (stereo partly drawn) | LysM receptor-like kinase (Brachypodium distachyon, UniProt A0A0Q3FRN3) | radioligand binding, competition binding | membrane fractions | 2 µM, together with: radiolabelled LCO-V(C18:1,NMe) | – | competition of LCO binding | 0% and 3.19% and 0.3% |
| CC(=O)N([O-])CCCCCNC(=O)CCC(=O)N([O-])CCCCCNC(=O)CCC(=O)N([O-])CCCCCN.[Fe+3] | uncharacterized protein (Bordetella pertussis, UniProt Q7VXW9) | siderophore binding, fluorescence quenching titration | – | pH 6.5, together with: ferric siderophore | – | maximum fluorescence quenching | ~40% |
| Cc1ccc(C(=O)Nc2ccc3ccccc3c2)o1 | Otop1 (Mus musculus, UniProt Q80VM9) | proton current, whole-cell patch clamp | – | 10 µM, pH 6 | – | peak current ratio Ip2/Ip1 | 2.5 and 2.26 and 2.25 and 2.23 and 1.91 and 2.1 and 2.46 |
| NC(=O)NOCCCCCCCCCC[P+](c1ccccc1)(c1ccccc1)c1ccccc1.O=C([O-])C(F)(F)F | MT-CYB/UQCRFS1 | complex III-dependent respiration, Seahorse XF96 | HCT-116 | 20 µM, 24 h | relative to: control | oxygen consumption rate | 52.1 ± 4.24% |
| COC(=O)CC1=NN(c2nc3ccccc3[nH]2)C(=O)C1 | Protein lin-28 homolog A | – | – | – | – | Hill slope | -0.7 |
| COc1cc(-c2cc(C(C)=O)n3ccccc23)c(OC)cc1Cn1ccnc1 | Peregrin (BRPF1, Homo sapiens, UniProt P55201) | – | – | – | – | ΔTm | -0.5 °C |
| Nc1ncnc2c1ncn2[C@@H]1O[C@H](CSCC[C@H](N)C(=O)O)[C@@H](O)[C@H]1O | O-methyltransferase (Sorghum bicolor, UniProt A0A1B6PFV1) | – | – | concentration not given, together with: PTR+ | – | ΔG of binding | -8.42 kcal/mol |
| NC(=O)NOCCCCCCCCCCCCCCCC[P+](c1ccccc1)(c1ccccc1)c1ccccc1.O=C([O-])C(F)(F)F | MT-CYB/UQCRFS1 | complex III-dependent respiration, Seahorse XF96 | HCT-116 | 0.03 µM, 24 h | relative to: control | oxygen consumption rate | 94% |
| CCNC(=O)/C=C/c1cccc(Br)c1 | Sodium-dependent neutral amino acid transporter B(0)AT1 (SLC6A19, Homo sapiens, UniProt Q695T7) | inhibitor, L-[14C]leucine uptake | CHO-BC cells | 0.1 µM, 6 min, unit not given, together with: GPNA 3 mM, JPH203 3 µM | relative to: uninhibited cells | remaining transport activity | 0.924 |
| O=C1Nc2ccc(Br)cc2C1O (stereo not drawn) | Dehaloperoxidase B ferric | product, HPLC | – | together with: 5-bromoindole 500 µM, H2O2 500 µM | – | share of total products | 3.9% |
| O=S(=O)(O)C1CCNCC1 | SLC6A6 Y138A | binding, microscale thermophoresis | – | 125 µM, room temperature, together with: 50 nM labelled protein | higher = more binding | normalised MST signal | -0.0026 |
| CCc1cnn2c(NCc3ccc[n+]([O-])c3)cc(N3CCCC[C@H]3CCO)nc12 | Bromodomain-containing protein 4 (BRD4, Homo sapiens, UniProt O60885) | 19F NMR, refers to: tyrosine 65 | – | 186 µM | relative to: free protein | chemical shift change | 0.081 ppm |
| CC(C)OCCn1c(=S)[nH]c(=O)c2[nH]ccc21 | Myeloperoxidase (MPO, Homo sapiens, UniProt P05164) | H2O2 consumption, inhibitor, H2O2 electrode | – | 0.68 µM, 0 s | – | H2O2 concentration | -35.7 µM |
| COc1c(C(=O)O)csc1Br | Protein lin-28 homolog A | – | – | – | – | Hill slope | -1.4 |
| NC(=O)NOCCCCCCCCCCCCCCCCCCCC[P+](c1ccccc1)(c1ccccc1)c1ccccc1.O=C([O-])C(F)(F)F | MT-CYB/UQCRFS1 | complex III-dependent respiration, Seahorse XF96 | HCT-116 | 0.1 µM, 24 h | relative to: control | oxygen consumption rate | 107% |
| NCCCCC(=O)O | SLC6A6 Y138A | binding, microscale thermophoresis | – | 244 nM, room temperature, together with: 50 nM labelled protein | higher = more binding | normalised MST signal | 0.00193 |
| C=CC(=O)N1CCC(COCC(=O)N2CCN(c3nc(-c4cnc(N)nc4C(F)F)nc(N4CCOC[C@@H]4C)n3)CC2)CC1 | Tyrosine-protein kinase ABL1, phosphorylated (ABL1, Homo sapiens, UniProt P00519, T315I) | KINOMEscan | – | 1 µM | – | remaining binding | 95% |
| O=C(COP(=O)(O)O)[C@@H](O)[C@H](O)[C@H](O)COP(=O)(O)O | Dipeptidyl peptidase 1 (CTSC, Homo sapiens, UniProt P53634) | thermal proteome profiling | HepG2 cell lysate | concentration not given, 57 over 37 °C, mean | relative to: compound over control | thermal stability ratio | 1.6 |
| O=C1C=Nc2ccc(Br)cc21 | Dehaloperoxidase B ferric | product, HPLC | – | together with: 5-bromoindole 500 µM, H2O2 250 µM | – | share of total products | 43.9% |
| NC(=O)NO | MT-CYB/UQCRFS1 | complex III-dependent respiration, Seahorse XF96 | HCT-116 | 10 µM, 24 h | relative to: control | oxygen consumption rate | 94.1 ± 5.76% |
| CCCCC[C@@H]1OC(=O)[C@@H](C)N(C)C(=O)[C@H](CCCCC)OC(=O)[C@@H](C)N(C)C(=O)[C@H](CC(=O)O)OC(=O)[C@@H](C)N(C)C(=O)[C@H](CCCCC)OC(=O)[C@@H](C)N(C)C1=O | ryanodine receptor 2 (Sus scrofa, UniProt A0A5G2R1W3) | single-channel gating, planar lipid bilayer | – | 50 µM, pCa 7, porcine | – | open dwell time constant T2 | 15 ± 6.4 ms |
| COc1ccc2cc1Oc1ccc(cc1)C[C@H]1c3cc(c(OC)cc3CCN1C)Oc1c(OC)c(OC)cc3c1[C@H](C2)N(C)CC3 | PKD2L1 (Homo sapiens, UniProt Q9P0L9, F514A) | ion current, patch clamp | – | concentration not given | – | tail current | inhibited |
| CC[C@@H]1[C@H](F)C(=O)N[C@@H]1COc1nccc2cc(C(N)=O)c(OC)cc12 | STE20-related kinase adapter protein beta (Homo sapiens, UniProt Q9C0K7) | ATP probe binding, KiNativ profiling, refers to: Lys1 probe site | THP-1 cell lysate | 0.01 mM | – | inhibition | -4.9% |
| Cc1nc2ccc(CN(C)c3ccc(C(=O)N[C@@H](CCC(=O)O)C(=O)O)s3)cc2c(=O)[nH]1 | Thymidylate synthase (TYMS, Homo sapiens, UniProt P04818) | from literature Kd | – | – | – | binding efficiency index | 16 |
| CC(C)CC(=O)N[C@H](C(=O)N[C@H](C(=O)N[C@@H](CC(C)C)[C@@H](O)CC(=O)N[C@@H](C)C(=O)N[C@@H](CC(C)C)[C@@H](O)CC(=O)NCCOCCOCCC(=O)NCCCC[C@H](NC(=O)CN1CCN(CC(=O)O)CCN(CC(=O)O)CC1)C(=O)O)C(C)C)C(C)C | Cathepsin D (CTSD, Homo sapiens, UniProt P07339) | surface plasmon resonance | – | – | – | association rate constant | 971 M⁻¹ s⁻¹ |
| [Cl-].[K+] | GUK1 (Homo sapiens, UniProt Q16774) | enzyme activity, NADH-coupled | – | 3.75 mM | – | reaction velocity | 0.046 µM/s and 0.0503 µM/s and 0.0584 µM/s |

Repeated from above:
| SMILES | target | test | test system | setting | how to read | measurement | result |
| --- | --- | --- | --- | --- | --- | --- | --- |
| NC(=O)NO | MT-CYB/UQCRFS1 | complex III-dependent respiration, Seahorse XF96 | HCT-116 | 10 µM, 24 h | relative to: control | oxygen consumption rate | 94.1 ± 5.76% |
| COc1cc(-c2cc(C(C)=O)n3ccccc23)c(OC)cc1Cn1ccnc1 | Peregrin (BRPF1, Homo sapiens, UniProt P55201) | – | – | – | – | ΔTm | -0.5 °C |
| COC(=O)CC1=NN(c2nc3ccccc3[nH]2)C(=O)C1 | Protein lin-28 homolog A | – | – | – | – | Hill slope | -0.7 |
| CC(=O)N([O-])CCCCCNC(=O)CCC(=O)N([O-])CCCCCNC(=O)CCC(=O)N([O-])CCCCCN.[Fe+3] | uncharacterized protein (Bordetella pertussis, UniProt Q7VXW9) | siderophore binding, fluorescence quenching titration | – | pH 6.5, together with: ferric siderophore | – | maximum fluorescence quenching | ~40% |
